# Measurements from different studies.
# A part holds a random share of what one study measured.
# Sequence of UniProt P54760 (whole entry, looked up): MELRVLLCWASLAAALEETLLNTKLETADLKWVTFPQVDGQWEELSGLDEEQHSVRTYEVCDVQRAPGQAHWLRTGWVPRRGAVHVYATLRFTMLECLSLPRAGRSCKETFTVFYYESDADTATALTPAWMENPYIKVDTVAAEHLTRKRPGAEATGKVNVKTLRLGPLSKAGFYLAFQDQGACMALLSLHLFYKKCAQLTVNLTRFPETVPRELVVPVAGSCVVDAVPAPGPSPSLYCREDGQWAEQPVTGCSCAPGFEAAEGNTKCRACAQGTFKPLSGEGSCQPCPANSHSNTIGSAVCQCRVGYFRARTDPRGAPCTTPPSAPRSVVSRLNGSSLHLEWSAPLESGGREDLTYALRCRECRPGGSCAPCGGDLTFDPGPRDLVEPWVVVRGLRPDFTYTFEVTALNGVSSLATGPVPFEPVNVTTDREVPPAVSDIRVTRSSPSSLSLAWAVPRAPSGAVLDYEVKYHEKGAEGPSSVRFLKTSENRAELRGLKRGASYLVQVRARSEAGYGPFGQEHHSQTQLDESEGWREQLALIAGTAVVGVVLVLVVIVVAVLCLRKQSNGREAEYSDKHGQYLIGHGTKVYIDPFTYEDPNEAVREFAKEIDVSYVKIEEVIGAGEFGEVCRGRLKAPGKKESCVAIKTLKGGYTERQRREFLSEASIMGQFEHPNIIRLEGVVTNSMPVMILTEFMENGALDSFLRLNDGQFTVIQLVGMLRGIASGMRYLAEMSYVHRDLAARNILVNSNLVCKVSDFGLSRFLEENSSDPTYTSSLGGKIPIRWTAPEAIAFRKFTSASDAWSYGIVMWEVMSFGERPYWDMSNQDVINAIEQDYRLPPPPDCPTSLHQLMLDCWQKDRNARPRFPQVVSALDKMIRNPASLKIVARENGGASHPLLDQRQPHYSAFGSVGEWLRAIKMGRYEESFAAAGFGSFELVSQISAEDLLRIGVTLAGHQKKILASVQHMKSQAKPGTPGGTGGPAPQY
# Sequence of UniProt P54646 (whole entry, looked up): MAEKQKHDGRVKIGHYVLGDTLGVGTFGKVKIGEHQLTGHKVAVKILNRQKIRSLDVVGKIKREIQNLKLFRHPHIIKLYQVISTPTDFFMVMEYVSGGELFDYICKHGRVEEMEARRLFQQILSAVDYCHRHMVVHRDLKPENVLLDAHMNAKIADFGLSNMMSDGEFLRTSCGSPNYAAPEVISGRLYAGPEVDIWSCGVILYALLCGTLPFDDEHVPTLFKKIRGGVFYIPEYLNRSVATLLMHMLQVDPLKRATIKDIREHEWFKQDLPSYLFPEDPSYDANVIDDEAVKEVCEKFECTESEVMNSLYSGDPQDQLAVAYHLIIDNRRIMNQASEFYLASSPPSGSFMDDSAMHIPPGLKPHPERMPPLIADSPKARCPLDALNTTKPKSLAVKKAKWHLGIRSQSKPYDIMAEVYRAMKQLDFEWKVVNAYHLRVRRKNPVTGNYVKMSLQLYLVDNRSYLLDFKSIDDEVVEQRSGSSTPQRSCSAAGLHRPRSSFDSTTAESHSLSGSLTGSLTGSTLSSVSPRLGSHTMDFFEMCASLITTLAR
# Sequence of UniProt P23458 (whole entry, looked up): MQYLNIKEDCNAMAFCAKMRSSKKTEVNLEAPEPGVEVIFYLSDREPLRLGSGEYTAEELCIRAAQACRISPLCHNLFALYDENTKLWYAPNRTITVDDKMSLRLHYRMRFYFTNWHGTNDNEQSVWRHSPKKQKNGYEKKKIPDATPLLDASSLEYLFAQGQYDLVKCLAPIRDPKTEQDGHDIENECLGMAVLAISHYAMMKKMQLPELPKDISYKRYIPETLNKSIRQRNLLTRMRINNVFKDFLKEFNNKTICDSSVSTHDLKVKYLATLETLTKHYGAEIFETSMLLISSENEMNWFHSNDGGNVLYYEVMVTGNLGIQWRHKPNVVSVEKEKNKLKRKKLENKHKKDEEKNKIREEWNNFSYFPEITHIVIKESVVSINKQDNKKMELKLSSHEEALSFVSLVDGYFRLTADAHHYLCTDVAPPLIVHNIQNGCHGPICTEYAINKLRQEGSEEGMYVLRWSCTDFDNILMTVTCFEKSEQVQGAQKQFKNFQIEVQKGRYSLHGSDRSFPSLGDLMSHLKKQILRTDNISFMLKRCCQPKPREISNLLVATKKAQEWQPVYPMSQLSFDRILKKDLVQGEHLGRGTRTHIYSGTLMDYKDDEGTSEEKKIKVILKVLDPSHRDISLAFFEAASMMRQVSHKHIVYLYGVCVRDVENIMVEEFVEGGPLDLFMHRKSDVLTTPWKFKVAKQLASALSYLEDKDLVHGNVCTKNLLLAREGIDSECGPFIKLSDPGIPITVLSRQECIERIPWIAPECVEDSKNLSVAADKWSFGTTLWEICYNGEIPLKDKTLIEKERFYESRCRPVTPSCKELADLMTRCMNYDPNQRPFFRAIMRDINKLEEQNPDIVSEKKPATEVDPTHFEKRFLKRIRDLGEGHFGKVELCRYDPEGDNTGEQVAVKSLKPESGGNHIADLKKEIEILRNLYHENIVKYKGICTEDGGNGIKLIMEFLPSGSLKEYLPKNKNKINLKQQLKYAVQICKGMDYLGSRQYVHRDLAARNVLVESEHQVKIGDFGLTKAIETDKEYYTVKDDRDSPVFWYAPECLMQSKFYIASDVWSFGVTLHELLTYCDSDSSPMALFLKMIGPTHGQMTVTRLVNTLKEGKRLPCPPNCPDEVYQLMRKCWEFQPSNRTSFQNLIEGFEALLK
# Sequence of UniProt P15735 (whole entry, looked up): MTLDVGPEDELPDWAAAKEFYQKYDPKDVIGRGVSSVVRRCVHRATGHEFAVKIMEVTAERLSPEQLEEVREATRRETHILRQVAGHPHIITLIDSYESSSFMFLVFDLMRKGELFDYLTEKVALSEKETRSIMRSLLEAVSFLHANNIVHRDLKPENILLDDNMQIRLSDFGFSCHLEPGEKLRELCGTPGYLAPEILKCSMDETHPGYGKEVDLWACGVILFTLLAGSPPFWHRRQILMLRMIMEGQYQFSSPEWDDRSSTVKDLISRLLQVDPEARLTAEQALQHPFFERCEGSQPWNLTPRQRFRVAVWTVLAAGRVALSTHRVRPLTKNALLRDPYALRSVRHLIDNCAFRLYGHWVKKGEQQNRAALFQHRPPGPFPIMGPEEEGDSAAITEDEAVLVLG
# Sequence of UniProt Q06187 (whole entry, looked up): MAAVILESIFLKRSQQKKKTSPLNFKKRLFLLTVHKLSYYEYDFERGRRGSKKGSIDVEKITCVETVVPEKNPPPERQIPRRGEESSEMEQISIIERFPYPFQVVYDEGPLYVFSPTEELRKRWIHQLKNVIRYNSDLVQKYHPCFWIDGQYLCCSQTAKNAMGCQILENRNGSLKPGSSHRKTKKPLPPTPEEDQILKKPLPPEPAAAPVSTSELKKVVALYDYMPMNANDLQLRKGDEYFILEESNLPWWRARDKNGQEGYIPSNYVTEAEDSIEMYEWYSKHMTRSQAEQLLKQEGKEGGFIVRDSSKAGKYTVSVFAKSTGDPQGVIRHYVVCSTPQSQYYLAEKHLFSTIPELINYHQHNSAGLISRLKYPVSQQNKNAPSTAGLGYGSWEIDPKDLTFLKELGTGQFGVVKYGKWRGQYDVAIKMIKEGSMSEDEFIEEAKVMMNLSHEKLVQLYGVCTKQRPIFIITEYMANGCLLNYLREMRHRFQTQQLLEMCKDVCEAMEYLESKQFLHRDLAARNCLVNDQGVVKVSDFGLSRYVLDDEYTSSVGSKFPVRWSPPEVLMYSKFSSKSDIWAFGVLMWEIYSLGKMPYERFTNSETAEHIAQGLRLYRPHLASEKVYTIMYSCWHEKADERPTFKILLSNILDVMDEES

# Block 1
# Compound: Cc1nccc(COC(=O)N2C[C@@H]3[C@@H](CNC(=O)c4ccc5[nH]nnc5c4)[C@@H]3C2)n1
# Read-out: cell-free assay
# Method: competition with immobilised ligand
# Concentration: 1 µM
target,remaining binding [%]
"CASK (Homo sapiens, UniProt O14936)",72
"MAPK14 (Homo sapiens, UniProt Q16539)",100
"EPHB4 (Homo sapiens, UniProt P54760)",100
"PRKAA2 (Homo sapiens, UniProt P54646)",97
"TSSK3 (Homo sapiens, UniProt Q96PN8)",100
"PHKG2 (Homo sapiens, UniProt P15735)",97
"TAOK2 (Homo sapiens, UniProt Q9UL54)",91
"STK25 (Homo sapiens, UniProt O00506)",100
"Tyrosine-protein kinase JAK1, JH1 (JAK1, Homo sapiens, UniProt P23458)",92
"Tyrosine-protein kinase ABL1, non-phosphorylated (ABL1, Homo sapiens, UniProt P00519, Q252H)",100
"LCK (Homo sapiens, UniProt P06239)",94
"ERBB2 (Homo sapiens, UniProt P04626)",99
"BTK (Homo sapiens, UniProt Q06187)",99
"GRK7 (Homo sapiens, UniProt Q8WTQ7)",88

# Block 2
# SMILES: COc1ccc(-c2c(Nc3ccccn3)[nH]c3c(C4=CCCCC4)c(-c4ccccc4)nn3c2=O)cc1
# Species: cancer patients
# Matrix: plasma
# Route: oral
# Time: cycle 0 day -3
# Setting: single dose
setting,"AUC(0-inf), geometric mean [ng·h/mL]"
100 mg,46500
200 mg,75200
150 mg,53900

# Block 3
# Target: Ephrin type-B receptor 4 (EPHB4, Homo sapiens, UniProt P54760)
# Read-out: enzyme activity
# Mode: inhibitor
# Concentration: 0.5 µM
# Baseline: control
SMILES,remaining activity [%]
CCOc1nc(NC(=O)Cc2cc(OC)ccc2OC)cc(N)c1C#N,98.3
COc1cc2c(cc1OC)-c1[nH]nc(Nc3cccc(F)c3)c1C2,95.3
Cc1nc2cc3nc(-c4cccs4)cnc3cc2n1C,92.1
CCN(CC)C(=O)c1ccc(Nc2nc(OCC3CCCCC3)c3[nH]cnc3n2)cc1,85
Cc1cc2ncc(-c3ccccc3)nc2cc1C,95.6
O=C1c2ccccc2-c2n[nH]c3cccc1c23,90.9
O=c1cc(-c2cccc3c2Sc2ccccc2S3)oc(N2CCOCC2)c1,94.3
O=C(NC(NC(=S)Nc1ccc(F)c([N+](=O)[O-])c1)C(Cl)(Cl)Cl)C(c1ccccc1)c1ccccc1 (stereo not shown),101
N#Cc1c(NC(=O)c2cccc3ccccc23)sc2c1CCCC2,99.5
COc1cc2ncnc(Nc3ccc(O)c(Br)c3)c2cc1OC,52.2
Cc1cn(-c2cc(NC(=O)c3ccc(C)c(Nc4nccc(-c5cccnc5)n4)c3)cc(C(F)(F)F)c2)cn1,11.4
COc1cc2ncnc(Nc3cccc(Cl)c3)c2cc1OC,59.7
O=C1C(Cl)=C(N2C(=O)CCC2=O)C(=O)c2ccccc21,98.7
N#C/C(=C\c1ccc(O)c(O)c1)C(=O)NCc1ccccc1,88.2
C[C@@H]1CCN(C(=O)CC#N)C[C@@H]1N(C)c1ncnc2[nH]ccc12,89.8
c1ccc(-c2cnc(Nc3ccc(OCCN4CCCC4)cc3)s2)cc1,91.9
CN(C)C[C@H]1CCn2c(c(C3=C(c4cn(C)c5ccccc45)C(=O)NC3=O)c3ccccc32)C1,90.9
c1ccc(-c2[nH]ncc2-c2ccnc3ccccc23)nc1,89.1

# Other studies, line by line
# Method: PRP chromatography estimate
# Matrix: 1,9-decadiene/PBS
# pH: 7.4
Structure (SMILES),logD
CC(C)C[C@@H]1NC(=O)[C@@H](C)NC(=O)[C@@H](CC(C)C)NC(=O)[C@@H](CC(C)C)NC(=O)[C@H](C(C)C)NC(=O)[C@H](CC(C)C)NC(=O)[C@@H](CC(C)C)NC1=O,0.618
CC(C)C[C@@H]1NC(=O)[C@H](C)NC(=O)[C@H](C)NC(=O)[C@H](C)NC(=O)[C@H](C(C)C)NC(=O)[C@H](CC(C)C)NC(=O)[C@@H](CC(C)C)NC1=O,-2.59

# Repeated from above (block 2):
setting,"AUC(0-inf), geometric mean [ng·h/mL]"
100 mg,46500
200 mg,75200
